Assay results collected from several papers.
Protocols differ between the studies behind these lines. “And” joins repeats or separate records; there may be more than shown.
Target: Aurora kinase B (AURKB, Homo sapiens, UniProt Q96GD4)

| Structure (SMILES) | test | test system | conditions | how to read | endpoint | result |
| --- | --- | --- | --- | --- | --- | --- |
| COc1ccc(NC(=O)Nc2ccc3c(c2)C(=O)N(C(C)CO)CC(C)C(CN(C)Cc2ccc4c(c2)OCO4)O3)cc1 (stereo not shown) | kinase activity | – | 0.03 µM | baseline: control | remaining activity | 17% |
| NC(=O)[C@@H](O)C[C@H]1CCc2sc3ncnc(O[C@H]4CC[C@H](N5CCOCC5)CC4)c3c21 | enzyme activity, inhibitor | – | 10 µM | – | inhibition | 6% |
| CNC(=O)C[C@H](Cc1ccc(C#N)cc1)NC(=O)c1cc(-c2ccc(CN[C@H](C)c3ccc(C)cc3)o2)ccc1Cl | enzyme activity, inhibitor | – | 1 µM | – | activity vs control | 122% |
| COc1cc(Nc2nc(C)cc(-c3cnn4nc(OC)ccc34)n2)cc(C(F)(F)F)c1 | inhibitor | – | 1 µM | baseline: control | remaining activity | 85% |
| CC(=O)N1c2ccc(-c3ccc(CNC(=O)c4cn5cc(-c6cnc(N)nc6)nc(N6CCOCC6)c5n4)cc3)cc2CC[C@@H]1C | KINOMEscan | – | 10 µM | – | remaining binding | 78% |
| Nc1ncc(-c2cc(-c3cnn(CC(F)(F)F)c3)ncc2F)nc1C(=O)NC1CNCC(F)C1 (stereo not shown) | enzyme activity | – | 1 µM | baseline: DMSO control | remaining activity | 86.2% |
| CN1C[C@@H](c2c[nH]c3cc(Br)ccc23)NC[C@@H]1c1c[nH]c2cc(Br)ccc12 | enzyme activity, inhibitor | – | 10 µM | – | remaining activity | 78% |
| COc1c(Cl)cccc1Nc1c(-c2ccncc2C#C[C@@]2(C)CCCN2C(=O)/C=C/CN(C)C)[nH]c2c1C(=O)NCC2 | cell-free assay, competition with immobilised ligand | – | 3 µM | – | remaining binding | 84% |
| Cc1[nH]nc2c1N=C(c1ccccc1Cl)c1cnc(N3CCOCC3)cc1N2 | enzyme activity, inhibitor | – | 0.5 µM | – | inhibition | > 99% |
| CCn1cc(C(=O)O)c(=O)c2c(N)c(F)c(NC3CCCCC3)cc21 | kinase activity | – | 0.1 µM, added: ATP at Km | – | inhibition | 4.1% |
| C=CC(=O)N1CCCC(n2c(=O)c3ncccc3n(Cc3ccc(Oc4ccccc4)cc3)c2=O)C1 (stereo not shown) | cell-free assay, competition with immobilised ligand | – | 1 µM | – | remaining binding | 69% |
| CN1CC[C@@H](COc2cnc(C#N)cc2-c2ccn3nc(NC(=O)C4CC4)cc3c2)C1 | enzyme activity, inhibitor | – | 1 µM | – | inhibition | 14% |
| Cc1cccc(O[C@H]2CCC[C@@H](C(C)CNCc3ccncc3)C2)c1 (relative stereo) | enzyme activity, inhibitor | – | 1 µM | – | inhibition | -3% |
| CNC1C[S+]2CC[S+]3CC[S+](C1)[Ru-4]321([N]=C=S)[n]2c3ccc(OC)cc3c3c4c(c5cc(F)c[n+]1c5c32)C(=O)NC4=O (stereo not shown) | KinomeScan | – | 0.1 µM | baseline: untreated | remaining binding | 87% |
| CCN1CCN(Cc2ccc(C(=O)Nc3ccc(C)c(NCc4cnc5[nH]ccc5c4OC)c3)cc2C(F)(F)F)CC1 | binding, competition with immobilised ligand | – | 1 µM | – | remaining binding | 54% |
| Cc1ccc(C(=O)NC(C)c2cccc(-c3ccncc3)c2)cn1 (stereo not shown) | cell-free assay, competition with immobilised ligand | – | 10 µM | – | remaining binding | 28% |
| C=CC(=O)Nc1cccc(-c2cnc3[nH]cc(C(=O)NC(C)(C)C)c3n2)c1 | enzyme activity, inhibitor | – | 0.1 µM | – | inhibition | 18% |
| C[C@H]1CN(C(=O)c2cn(-c3ccnc(N)n3)c3cc(C#CC4(O)CCCCC4)ccc23)CCN1 | enzyme activity, inhibitor, FRET | – | 1 µM | – | inhibition | 53% |
| CN1CCN(Cc2ccc(NC(=O)c3cccc(C#Cc4cnc(N)c5ncccc45)c3)cc2C(F)(F)F)CC1 | cell-free assay, competition with immobilised ligand | – | 50 nM | – | remaining binding | 29% |
| C=C1CCCCCCCCCC(CO)C1=O (stereo not shown) | cell-free assay | – | 10 µM | – | remaining signal | 99% |
| COc1ccc(O)cc1-c1c[nH]c2ncc(-c3cncc(C(=O)N(C)C)c3)cc12 | binding, competition with immobilised ligand | – | 0.2 µM | – | inhibition | -0.76% |
| N[C@H]1CC[C@H](Nc2nccc(-c3cccnc3Oc3ccc(NC(=O)NC4CC4)c4ccccc34)n2)CC1 | kinobead competition pulldown | HEK293/HCT116 lysate mixture | 10 µM, 1 h, 4 °C | lower = stronger competition | log2 LFQ intensity | 23.9 and 23.8 and 23.7 and 23.6 |

Excerpt of the above:
| Structure (SMILES) | test | test system | conditions | how to read | endpoint | result |
| --- | --- | --- | --- | --- | --- | --- |
| COc1ccc(O)cc1-c1c[nH]c2ncc(-c3cncc(C(=O)N(C)C)c3)cc12 | binding, competition with immobilised ligand | – | 0.2 µM | – | inhibition | -0.76% |
| N[C@H]1CC[C@H](Nc2nccc(-c3cccnc3Oc3ccc(NC(=O)NC4CC4)c4ccccc34)n2)CC1 | kinobead competition pulldown | HEK293/HCT116 lysate mixture | 10 µM, 1 h, 4 °C | lower = stronger competition | log2 LFQ intensity | 23.9 and 23.8 and 23.7 and 23.6 |
